Published values gathered from unrelated publications.
Compare with care: the assays were run in different laboratories. Values joined by “and” are separate records of one study, mostly repeats; a detail may differ. ± marks the error that the study gave. In brackets after ≈: the same amount, converted by molar mass.

| Structure (SMILES) | assay | test system | conditions | how to read | measurement | value |
| --- | --- | --- | --- | --- | --- | --- |
| O=C(Nc1ccccc1)C1CCN(C(=O)Oc2cccnc2)CC1 | – | healthy women | oral, 20 mg, 7 days | – | Psychiatric disorders adverse events | 7.1% |
| COc1ccc([C@@H]2CC(=O)c3c(O)cc(O)cc3O2)cc1O | – | Sprague-Dawley rat, male, lean, faeces | oral, 100 mg/kg neohesperidin, 48 h | reference: dose | faecal recovery | 0.147 ± 0.04% |
| CCc1ccc(CC/C=C/c2ccc3c(c2)C(=O)CC3)cc1 | – | Sprague-Dawley rat, female | oral, 450 mg/kg/day, 14 days | – | TC | 2.24 mM |
| CC(=O)c1c(C)c2cnc(Nc3ccc(C4CCN(CCS(C)(=O)=O)CC4)cn3)nc2n(C2CCCC2)c1=O | – | human, dose-escalation trial, plasma | oral, 100 mg twice daily, day 1, single dose | – | AUC(0-inf) | 2520 ng·h/mL |
| C=CC[N+]1([C@H]2C[C@H]3[C@@H]4CC[C@H]5C[C@H](O)[C@@H](N6CCOCC6)C[C@]5(C)[C@H]4CC[C@]3(C)[C@H]2OC(C)=O)CCCC1 | – | Sprague Dawley rat, plasma | intravenous, dose not given, together with: sugammadex 5 mg/kg ODD | – | terminal half-life | 24.5 min |
| CN(C(=O)n1cnc(-c2ccc[n+]([O-])c2)c1)C1CCCCC1 | – | Wistar rat, medulla oblongata | oral, 10 mg/kg/day, 4 h, repeated 5 days | – | concentration | 99.9 ± 38.4 ng/g |
| C[C@]1(O)C[C@@](N)(c2ccc(-c3nc4n(c3-c3ccccc3)COc3ccncc3-4)cc2)C1 | – | human, advanced or metastatic solid tumours | 28 mg intermittent, phase I dose escalation | – | patients with Fatigue TEAE | 66.7% |
| CCN1[C@@H](C(=O)NC23CCC(C(=O)O)(CC2)CC3)[C@H](c2cccc(Cl)c2F)[C@]2(C(=O)Nc3cc(Cl)ccc32)C12CCCCC2 | – | patients with advanced solid tumours | oral, dose not given, all doses | – | Myalgia incidence | 4.8% |
| CC(C)[C@H](C(=O)O[C@H](C#N)c1cccc(Oc2ccccc2)c1)c1ccc(Cl)cc1 | measured: CYP3A4 | human, age 5 years | – | – | enzyme contribution to clearance | 2.07% |
| COc1ncccc1-c1cnn2ccc(N3CCN(C(=O)OC(C)C)CC3)nc12 | – | rat, CCI mechanical allodynia model, plasma | oral, 3 mg/kg, 240 min | – | free drug concentration | 14.6 nM |
| CNC(=O)n1ccc2cc(Oc3ccnc(NC(=O)c4ccc(C5CCN(CCO)CC5)cc4)c3)c(OCCOC)cc21 | – | healthy human, plasma | oral, dose not given, together with: rabeprazole steady state | reference: compound alone | AUC(0-t) change | ~8% |
| CC(C)N(CCc1c[nH]c2cccc(OC(=O)CCCC(=O)O)c12)C(C)C.Cl | – | male beagle dog, plasma | intravenous, 1 mg/kg | – | clearance | 390 mL/min |
| CC(C)Nc1ccnc(Nc2cccc(-c3cccnc3)c2)n1 | measured: Creatinine | mouse, blood | intraperitoneal, 5 mg/kg | – | blood chemistry | 0.24 mg/dL |
| Cn1cncc1-c1c(F)cncc1NC(=O)c1c(N)nn2cc(F)cnc12 | – | human patients | oral, 80 mg once daily, 21 days | – | dose-limiting toxicity platelet decrease | 0% |
| COc1cc(Nc2ncc(F)c(Nc3ccc4c(n3)NC(=O)C(C)(C)O4)n2)cc(OC)c1OC | – | HEPES buffer | 24 h, pH 7.4, 0.1% DMSO | – | solubility | 3.5 µM (≈ 1.65 µg/mL) |
| COc1cc2c(Oc3ccc4[nH]c(C)cc4c3F)ccnc2cc1OCC1(N)CC1 | – | paediatric recurrent refractory sarcoma | 10 mg | – | grade 1 or 2 Appendicitis | 0% |
| O=C(c1ccc(F)c(F)c1Nc1ccc(I)cc1F)N1CC(O)([C@@H]2CCCCN2)C1 | – | human | oral, 1 mg/kg | – | duration of headache DLT | 12 days |
| COc1cccc(Oc2ccccc2NC(=O)CNC(=O)c2cccc3ccccc23)c1 | – | esterase-deficient SCID mice, male, blood | oral, 100 mg/kg/day, 14 days, toxicity study | – | mean corpuscular hemoglobin | 15 pg and 14.9 pg |

| Structure (SMILES) | assay | test system | conditions | how to read | measurement | value |
| --- | --- | --- | --- | --- | --- | --- |
| C=CC(=O)Nc1cc(Nc2nccc(Nc3cc(Cl)c(F)cc3C(C)(C)O)n2)c(OC)cc1N1CC[C@@H](N(C)C)C1 | treatment-emergent adverse events | human | oral, 400 mg, phase I clinical trial | – | incidence of vomiting | 65% |
| CCC[C@@](N)(CO)CCc1ccc(OCCCCCC(C)C)cc1 | – | hound dogs, male | intravenous, 0.25 mg/kg, geometric mean | – | volume of distribution (Vz) | 31.2 L/kg |
| O[C@H]1CCCN[C@@H]1CCCn1cnc2c(Cl)c(Cl)ccc21 | – | human | – | – | effect of CYP2D6 phenotype on pharmacokinetics | no effect |
| O=c1nc(NO)ccn1[C@@H]1O[C@H](CO)[C@@H](O)[C@H]1O | – | rat amniotic fluid dialysate | 1000 ng/mL, more than 4 weeks, -20 °C, high concentration, together with: molnupiravir 250 ng/mL | – | long-term stability | 101.5 ± 0.39% |
| CO[C@H]1C[C@@H]2CC[C@@H](C)[C@@](O)(O2)C(=O)C(=O)N2CCCC[C@H]2C(=O)O[C@H]([C@H](C)C[C@@H]2CC[C@@H](OC(=O)NCCOCCOCCOCCOCCOCCOCCOCCOCCC(=O)N3CCc4cc(Cn5nc(-c6ccc7oc(N)nc7c6)c6c(N)ncnc65)ccc4C3)[C@H](OC)C2)C[C@@H](O)[C@H](C)/C=C(\C)[C@@H](O)[C@@H](OC)C(=O)[C@H](C)C[C@H](C)/C=C/C=C/C=C/1C | phase 1 dose escalation | advanced solid tumour patients | intravenous, 16 mg weekly, grade ≥3 | – | any SAE incidence | 50% |
| O=S(=O)(Nc1ccccc1)c1ccc(NC(=S)Nc2ccccc2)cc1 | – | female mouse, blood | oral, 5 mg/kg daily, 14 days | – | haemoglobin | 14.3 g/dL |
| CC(C)C[C@H](NC(=O)[C@H](CCCCN)NC(=O)OCC1c2ccccc2-c2ccccc21)C(=O)N[C@H](C(=O)N[C@@H](Cc1ccccc1)C(=O)N[C@@H](Cc1ccccc1)C(=O)N[C@@H](CCCCN)C(=O)NCC(=O)N[C@@H](Cc1ccccc1)C(=O)N[C@@H](C)C(=O)N[C@@H](Cc1c[nH]c2ccccc12)C(=O)N[C@@H](CC(N)=O)C(=O)N[C@H](C(=O)N[C@H]1CSSC[C@@H](C(=O)N[C@@H](Cc2c[nH]cn2)C(=O)N[C@@H](CCCNC(=N)N)C(=O)N[C@@H](CCCNC(=N)N)C(=O)N[C@@H](C)C(=O)N[C@@H](CC(N)=O)C(N)=O)NC(=O)[C@H](C(C)C)NC(=O)[C@H](CCCNC(=N)N)NC(=O)[C@H](C(C)C)NC(=O)CNC(=O)[C@H](CC(N)=O)NC(=O)[C@H](CCCNC(=N)N)NC(=O)[C@H](Cc2ccc(O)cc2)NC(=O)[C@H](C(C)C)NC1=O)C(C)C)C(C)C | HPLC | trypsin buffer | 4.00 h, 37 °C, together with: trypsin 1 % w/v | – | peptide remaining | 49.2% and 51.6% and 49% |
| NCCCC[C@@H]1NC(=O)[C@@H](Cc2c[nH]c3ccccc23)NC(=O)[C@H](c2ccccc2)NC(=O)[C@@H]2C[C@@H](OC(=O)NCCN)CN2C(=O)[C@H](Cc2ccccc2)NC(=O)[C@H](Cc2ccc(OCc3ccccc3)cc2)NC1=O | – | healthy volunteers | subcutaneous, 1950 µg twice daily, day 5, 8.00 h | – | QTcI change from baseline | -0.4 ms |
| CN[C@@H](C)C(=O)N[C@H]1CN(S(=O)(=O)c2cccc(S(=O)(=O)N3CC[C@H]4CC[C@@H](C(=O)NC(c5ccccc5)c5ccccc5)N4C(=O)[C@@H](NC(=O)[C@H](C)NC)C3)c2)CC[C@H]2CC[C@@H](C(=O)NC(c3ccccc3)c3ccccc3)N2C1=O | – | patients advanced solid tumours | dose not given, all grades all doses | – | treatment-related pruritus | 3.6% |
| CN1CC[C@@H](c2c(O)cc(O)c3c(=O)cc(-c4ccc(C(F)(F)F)cc4Cl)oc23)[C@@H]1CO | measured: febrile neutropenia | B-cell malignancies | oral, 200 mg, grade 3 to 4, intermittent dosing | – | patients with adverse event | 0% |
| C=CC(=O)N1CC[C@H](n2nc(C#Cc3cc(OC)cc(OC)c3)c3c(N)ncnc32)C1 | – | human patients | oral, dose not given, QD regimen, adverse drug reaction, together with: any phosphate binder | – | hyponatremia incidence, grade ≥3 | 5% |
| C=CCNc1c(O)cc2c(O)c1C[C@@H](C)C[C@H](OC)[C@H](O)[C@@H](C)/C=C(\C)[C@H](OC(N)=O)[C@@H](OC)/C=C\C=C(/C)C(=O)N2 | – | human unresectable metastatic GIST or sarcoma | intravenous, dose not given | – | discontinuation due to adverse events | 5.6% |
| O=C1Nc2cc3[nH]nc(-c4ccncc4)c3cc2CN1Cc1ccccc1 | CTCAE v4.03 | advanced solid tumour patients | intravenous, 4.8 mg/kg, schedules 1/2 | – | patients with blurred vision | 25% |
| C[C@]1(CO)Cc2ncn(-c3ccc(C#N)c(Cl)c3)c2C(=O)O1 | – | healthy Japanese adults, plasma | 80 mg single dose | – | Tmax | 1 h |
| CC(C)n1c(C2CCNCC2)nc2c([N+](=O)[O-])c(Br)c(Br)cc21 | – | patients with AML | 125 mg, febrile neutropenia | – | AE leading to interruption | 6% |
| CNC(=O)c1cc(Oc2ccc(NC(=O)Nc3cc(C(C)(C)C)nn3-c3ccc4ncccc4c3)c(F)c2)ccn1 | any related SAE, NCI CTC v3.0 | human patients | oral, 1200 mg once daily, dose at onset | – | related SAE | 33% |
| O=C(Oc1ccc(-n2cccc2)cc1)[c-]1cccc1.[Fe+2].c1cc[cH-]c1 | cyclic voltammetry | acetonitrile | concentration not given, scan rate 100 mV/s, together with: Ag/AgCl reference | – | reduction potential | 649 mV |
| C=CC(=O)Nc1cc(Nc2ncc(C(=O)OC(C)C)c(-c3cn(C)c4ccccc34)n2)c(OC)cc1N(C)CCN(C)C | – | NSCLC patients, primary efficacy population | 160 mg once daily | – | fatal adverse reactions | 1.8% |

Excerpt of the above:
| Structure (SMILES) | assay | test system | conditions | how to read | measurement | value |
| --- | --- | --- | --- | --- | --- | --- |
| CC(=O)c1c(C)c2cnc(Nc3ccc(C4CCN(CCS(C)(=O)=O)CC4)cn3)nc2n(C2CCCC2)c1=O | – | human, dose-escalation trial, plasma | oral, 100 mg twice daily, day 1, single dose | – | AUC(0-inf) | 2520 ng·h/mL |
| Cn1cncc1-c1c(F)cncc1NC(=O)c1c(N)nn2cc(F)cnc12 | – | human patients | oral, 80 mg once daily, 21 days | – | dose-limiting toxicity platelet decrease | 0% |
| O=S(=O)(Nc1ccccc1)c1ccc(NC(=S)Nc2ccccc2)cc1 | – | female mouse, blood | oral, 5 mg/kg daily, 14 days | – | haemoglobin | 14.3 g/dL |
| C=CCNc1c(O)cc2c(O)c1C[C@@H](C)C[C@H](OC)[C@H](O)[C@@H](C)/C=C(\C)[C@H](OC(N)=O)[C@@H](OC)/C=C\C=C(/C)C(=O)N2 | – | human unresectable metastatic GIST or sarcoma | intravenous, dose not given | – | discontinuation due to adverse events | 5.6% |
